Assay results from different studies.
Parts stem from different laboratories: compare values within a part only. Values joined by “and” are separate records of one study, mostly repeats; a detail may differ. Changes are numbered by the printed parent chain.
UniProt P53350, sequence (whole entry, looked up): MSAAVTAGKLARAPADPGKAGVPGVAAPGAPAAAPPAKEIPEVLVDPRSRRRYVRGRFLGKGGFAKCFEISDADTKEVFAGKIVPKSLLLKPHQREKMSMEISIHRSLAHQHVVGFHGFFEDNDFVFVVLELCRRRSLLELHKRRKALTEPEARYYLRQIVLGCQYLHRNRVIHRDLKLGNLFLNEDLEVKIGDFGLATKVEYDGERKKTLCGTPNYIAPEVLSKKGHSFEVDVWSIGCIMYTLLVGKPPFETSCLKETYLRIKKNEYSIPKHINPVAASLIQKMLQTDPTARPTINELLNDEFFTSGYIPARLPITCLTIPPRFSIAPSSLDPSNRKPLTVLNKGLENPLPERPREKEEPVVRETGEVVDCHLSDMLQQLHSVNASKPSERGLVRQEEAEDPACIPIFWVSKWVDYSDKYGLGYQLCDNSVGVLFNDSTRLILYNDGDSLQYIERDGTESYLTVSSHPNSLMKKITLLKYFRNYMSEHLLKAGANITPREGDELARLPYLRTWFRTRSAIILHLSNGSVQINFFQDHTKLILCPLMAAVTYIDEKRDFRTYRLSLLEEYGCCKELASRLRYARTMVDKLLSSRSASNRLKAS
UniProt Q9Y6R4, sequence (whole entry, looked up): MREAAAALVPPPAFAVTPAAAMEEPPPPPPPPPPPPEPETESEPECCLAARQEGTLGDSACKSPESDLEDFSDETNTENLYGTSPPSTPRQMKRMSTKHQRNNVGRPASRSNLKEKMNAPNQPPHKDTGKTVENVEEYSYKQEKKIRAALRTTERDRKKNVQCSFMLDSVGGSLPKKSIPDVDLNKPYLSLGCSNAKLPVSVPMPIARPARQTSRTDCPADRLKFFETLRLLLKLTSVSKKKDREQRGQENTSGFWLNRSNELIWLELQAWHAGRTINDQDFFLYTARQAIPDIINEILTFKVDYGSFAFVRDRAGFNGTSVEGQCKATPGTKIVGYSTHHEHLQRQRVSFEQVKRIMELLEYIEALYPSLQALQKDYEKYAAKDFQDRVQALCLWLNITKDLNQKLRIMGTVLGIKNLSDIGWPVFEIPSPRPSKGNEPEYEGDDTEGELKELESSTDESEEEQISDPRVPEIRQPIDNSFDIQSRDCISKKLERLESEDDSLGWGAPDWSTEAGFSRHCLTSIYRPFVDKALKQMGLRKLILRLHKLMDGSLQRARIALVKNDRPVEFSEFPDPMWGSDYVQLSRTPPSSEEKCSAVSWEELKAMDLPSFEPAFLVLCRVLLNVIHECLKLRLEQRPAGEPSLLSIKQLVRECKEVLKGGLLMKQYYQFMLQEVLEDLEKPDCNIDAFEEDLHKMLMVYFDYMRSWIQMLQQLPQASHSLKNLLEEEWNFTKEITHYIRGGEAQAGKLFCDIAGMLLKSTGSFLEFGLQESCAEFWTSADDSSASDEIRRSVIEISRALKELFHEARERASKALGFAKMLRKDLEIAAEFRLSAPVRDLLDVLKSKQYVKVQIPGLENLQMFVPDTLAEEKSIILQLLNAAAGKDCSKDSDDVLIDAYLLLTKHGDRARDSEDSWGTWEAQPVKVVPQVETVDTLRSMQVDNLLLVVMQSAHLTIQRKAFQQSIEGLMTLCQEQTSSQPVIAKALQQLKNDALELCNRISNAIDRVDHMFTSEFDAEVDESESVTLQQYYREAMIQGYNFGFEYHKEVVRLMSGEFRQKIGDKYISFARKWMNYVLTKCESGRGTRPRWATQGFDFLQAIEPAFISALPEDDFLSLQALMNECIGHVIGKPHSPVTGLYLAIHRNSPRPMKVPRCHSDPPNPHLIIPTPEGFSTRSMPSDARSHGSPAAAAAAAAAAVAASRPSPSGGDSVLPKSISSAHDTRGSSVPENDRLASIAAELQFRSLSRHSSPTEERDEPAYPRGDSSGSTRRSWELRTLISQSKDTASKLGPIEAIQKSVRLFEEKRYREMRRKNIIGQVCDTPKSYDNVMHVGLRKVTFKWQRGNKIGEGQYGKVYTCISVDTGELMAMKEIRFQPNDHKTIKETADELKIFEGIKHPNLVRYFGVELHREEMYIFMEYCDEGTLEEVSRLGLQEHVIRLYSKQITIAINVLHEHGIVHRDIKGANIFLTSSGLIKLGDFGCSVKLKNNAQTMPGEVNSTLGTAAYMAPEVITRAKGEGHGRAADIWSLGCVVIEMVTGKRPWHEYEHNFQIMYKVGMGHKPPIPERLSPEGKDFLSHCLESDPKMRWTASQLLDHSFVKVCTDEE
UniProt Q6P3R8, sequence (whole entry, looked up): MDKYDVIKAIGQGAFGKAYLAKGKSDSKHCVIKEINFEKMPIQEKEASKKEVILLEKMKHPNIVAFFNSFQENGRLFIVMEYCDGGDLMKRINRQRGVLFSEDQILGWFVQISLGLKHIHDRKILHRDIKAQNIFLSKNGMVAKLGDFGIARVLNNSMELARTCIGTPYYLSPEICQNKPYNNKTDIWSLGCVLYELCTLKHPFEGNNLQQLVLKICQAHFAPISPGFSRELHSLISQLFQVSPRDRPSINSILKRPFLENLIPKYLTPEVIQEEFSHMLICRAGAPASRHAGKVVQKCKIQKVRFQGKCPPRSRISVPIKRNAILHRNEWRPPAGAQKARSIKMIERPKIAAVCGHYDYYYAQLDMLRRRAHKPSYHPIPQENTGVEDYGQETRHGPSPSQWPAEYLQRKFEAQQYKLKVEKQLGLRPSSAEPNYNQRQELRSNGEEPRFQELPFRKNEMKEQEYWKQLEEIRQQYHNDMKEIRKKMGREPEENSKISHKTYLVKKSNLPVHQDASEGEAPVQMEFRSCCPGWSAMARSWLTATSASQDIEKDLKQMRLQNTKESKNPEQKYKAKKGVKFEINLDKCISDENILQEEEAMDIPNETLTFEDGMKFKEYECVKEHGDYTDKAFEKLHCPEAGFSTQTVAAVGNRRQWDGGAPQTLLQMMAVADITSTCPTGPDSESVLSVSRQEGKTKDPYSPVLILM
UniProt Q56UN5, sequence (whole entry, looked up): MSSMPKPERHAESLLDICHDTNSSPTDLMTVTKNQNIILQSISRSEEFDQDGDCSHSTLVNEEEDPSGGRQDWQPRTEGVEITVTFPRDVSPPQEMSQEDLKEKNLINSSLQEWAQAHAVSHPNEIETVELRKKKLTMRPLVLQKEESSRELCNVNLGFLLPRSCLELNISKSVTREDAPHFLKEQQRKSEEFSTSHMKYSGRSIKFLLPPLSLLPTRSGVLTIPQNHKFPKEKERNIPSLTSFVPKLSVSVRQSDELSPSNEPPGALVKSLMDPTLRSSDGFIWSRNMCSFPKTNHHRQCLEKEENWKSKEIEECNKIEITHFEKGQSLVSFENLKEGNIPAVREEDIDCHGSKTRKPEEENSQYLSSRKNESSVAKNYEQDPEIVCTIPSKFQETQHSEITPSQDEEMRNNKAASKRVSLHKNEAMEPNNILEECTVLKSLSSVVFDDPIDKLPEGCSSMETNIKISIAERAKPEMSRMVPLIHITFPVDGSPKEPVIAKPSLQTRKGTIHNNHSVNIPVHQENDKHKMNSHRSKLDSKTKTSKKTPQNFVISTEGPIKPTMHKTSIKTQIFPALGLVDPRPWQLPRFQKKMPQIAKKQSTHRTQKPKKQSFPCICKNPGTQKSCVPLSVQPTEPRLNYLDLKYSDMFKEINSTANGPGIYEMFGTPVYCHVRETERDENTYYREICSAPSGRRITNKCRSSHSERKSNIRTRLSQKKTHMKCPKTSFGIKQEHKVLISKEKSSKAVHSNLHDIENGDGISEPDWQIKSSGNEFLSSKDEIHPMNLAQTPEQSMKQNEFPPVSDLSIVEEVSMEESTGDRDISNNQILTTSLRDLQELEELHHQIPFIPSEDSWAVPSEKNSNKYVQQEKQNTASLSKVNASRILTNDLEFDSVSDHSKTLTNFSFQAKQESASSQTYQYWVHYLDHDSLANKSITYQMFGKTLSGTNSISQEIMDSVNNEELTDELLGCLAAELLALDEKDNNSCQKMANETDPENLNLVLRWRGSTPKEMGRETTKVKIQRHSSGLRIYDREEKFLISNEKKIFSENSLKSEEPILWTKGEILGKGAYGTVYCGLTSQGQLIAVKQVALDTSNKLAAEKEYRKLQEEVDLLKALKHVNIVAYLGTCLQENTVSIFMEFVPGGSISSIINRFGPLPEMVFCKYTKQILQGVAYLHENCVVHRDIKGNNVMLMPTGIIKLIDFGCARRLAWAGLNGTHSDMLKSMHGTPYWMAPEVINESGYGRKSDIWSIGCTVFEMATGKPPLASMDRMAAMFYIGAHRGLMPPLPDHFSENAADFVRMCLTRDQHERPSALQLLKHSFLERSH

Set 1 — cell line: mouse MPNST tumor cells; technique: high-content nuclear imaging; item: cell number; concentration: 10 µM; time: 12 h; setting: mean of 2 replicates; reference: plate mean; reading: higher = more cells; endpoint: nuclei count
CCCCC1=NC2(CCCC2)C(=O)N1Cc1ccc(-c2ccccc2-c2nnn[nH]2)cc1: 0.83 z-score and 0.0723 z-score
Cc1cc(CS(=O)(=O)c2ccccc2)cc(OCc2ccc(CN3CCC[C@@H]3CO)cc2)c1: -2.07 z-score
OCCN1CCN(CC/C=C2/c3ccccc3Sc3ccc(C(F)(F)F)cc32)CC1: -6.26 z-score

Set 2 — target: CCNB1, cyclin fold, Cln2 fusion (human); technique: yeast growth competition, sequencing; sample: yeast; setting: weak parent motif; reference: not given; reading: higher = stronger binding; endpoint: normalised enrichment score
Parent: GMNC docking peptide (human); KNAKRNLSSEFAN
KNAKRNLSSEFNN [A12N]: 0.409
KNAKRNLSHEFAN [S9H]: 0.115
KNAKRNLSSEFRN [A12R]: 0.0898
KNAKHNLSSEFAN [R5H]: 0.445
KNAKRNDSSEFAN [L7D]: 0.674
KNAKRNLWSEFAN [S8W]: 0.0959
KNAKRNLSSEFTN [A12T]: 0.561
KNAKRNLSSEFGN [A12G]: -0.0727

Set 3 — observed: cell-free assay; technique: competition with immobilised ligand; concentration: 1 µM; endpoint: remaining binding
SMILES: Cc1nccc(COC(=O)N2C[C@@H]3[C@@H](CNC(=O)c4ccc5[nH]nnc5c4)[C@@H]3C2)n1
Receptor-type tyrosine-protein kinase FLT3 (FLT3, Homo sapiens, UniProt P36888, D835V/ITD): 100%
Serine/threonine-protein kinase PLK1 (PLK1, Homo sapiens, UniProt P53350): 92%
Serine/threonine-protein kinase SBK1 (SBK1, Homo sapiens, UniProt Q52WX2): 93%
Serine/threonine-protein kinase STK11 (STK11, Homo sapiens, UniProt Q15831): 100%
Proto-oncogene tyrosine-protein kinase Src (SRC, Homo sapiens, UniProt P12931): 100%
Serine/threonine-protein kinase Nek5 (NEK5, Homo sapiens, UniProt Q6P3R8): 87%
Mitogen-activated protein kinase kinase kinase 19 (MAP3K19, Homo sapiens, UniProt Q56UN5): 90%
Activin receptor type-1B (ACVR1B, Homo sapiens, UniProt P36896): 92%
SRSF protein kinase 1 (SRPK1, Homo sapiens, UniProt Q96SB4): 80%
Ribosomal protein S6 kinase alpha-2, N-terminal kinase domain (RPS6KA2, Homo sapiens, UniProt Q15349): 100%
Mitogen-activated protein kinase kinase kinase 4 (MAP3K4, Homo sapiens, UniProt Q9Y6R4): 94%
Tyrosine-protein kinase ABL1, non-phosphorylated (ABL1, Homo sapiens, UniProt P00519, F317L): 70%
Phosphatidylinositol 4,5-bisphosphate 3-kinase catalytic subunit alpha isoform (PIK3CA, Homo sapiens, UniProt P42336, E542K): 86%

Set 4 — host: human; sample: microsomes or S9; concentration: 2 µM; time: 0.5 h; endpoint: remaining compound
Cc1nn(-c2ccccn2)c2c1-c1oncc1CC2: 3.08%
c1ccc(Cn2c(-c3ccc(Oc4ccccc4)cc3)cn3ncnc23)cc1: 33.9%
Cc1cc2cc(NC(=O)c3cc4nccc(-c5cnn(C)c5C)n4n3)cc(Cl)c2o1: 18.8%
CC1CN(C(=O)C(C)(C)C)CC(C)N1C(=O)[C@@H]1C[C@H](C)CC(=O)N1 (some centres unmarked): > 100%

Further values, each from its own experiment
ADRB1: Beta-1 adrenergic receptor (ADRB1, Homo sapiens, UniProt P08588)
UniProt P08588, sequence (whole entry, looked up): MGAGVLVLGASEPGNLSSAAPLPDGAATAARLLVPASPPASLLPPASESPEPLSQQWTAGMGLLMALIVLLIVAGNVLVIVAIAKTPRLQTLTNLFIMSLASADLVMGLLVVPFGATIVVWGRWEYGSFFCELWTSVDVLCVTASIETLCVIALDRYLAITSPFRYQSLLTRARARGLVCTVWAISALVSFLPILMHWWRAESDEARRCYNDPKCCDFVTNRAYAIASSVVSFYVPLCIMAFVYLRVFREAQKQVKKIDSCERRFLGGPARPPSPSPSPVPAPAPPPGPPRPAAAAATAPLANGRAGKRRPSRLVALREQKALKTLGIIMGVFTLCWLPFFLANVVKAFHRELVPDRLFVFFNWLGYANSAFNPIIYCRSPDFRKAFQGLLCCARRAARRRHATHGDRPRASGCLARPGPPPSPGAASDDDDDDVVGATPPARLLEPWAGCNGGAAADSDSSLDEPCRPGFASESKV
Cc1ccc2c(CSc3nnnn3-c3ccc(Cl)cc3)cc(=O)oc2c1  EC50 (ADRB1; agonist): ≥ 100 µM
CC(=O)N[C@@H](Cc1c[nH]c2ccccc12)C(=O)N[C@@H](CCC(=O)C=[N+]=[N-])C(=O)OC(C)C  normalized intensity (item: malate; mouse, EL4 tumour; dose not given): -0.103 and 0.101 and 0.00026 and -0.0067 and -0.125 and -0.176
CC(C)n1cnc(-c2ccc(F)cc2)c1-c1ncc(C(=O)Nc2ccc(N3CCN(C)CC3)cc2)[nH]1  patients with hypophosphataemia (phase 2a trial; idiopathic pulmonary fibrosis patients; 60 mg once daily, grade 4 emergent event): 0%
Cc1noc(C)c1-c1nccc2c(=O)cc(N(C)c3ccccc3)oc12  EC50 (ADRB1; agonist): ≥ 100 µM
